Results pooled from the literature.
Protocols differ between the studies behind these lines.
Target: Cytochrome P450 1A2 (CYP1A2, Homo sapiens, UniProt P05177)
Sequence of UniProt P05177 (whole entry, looked up): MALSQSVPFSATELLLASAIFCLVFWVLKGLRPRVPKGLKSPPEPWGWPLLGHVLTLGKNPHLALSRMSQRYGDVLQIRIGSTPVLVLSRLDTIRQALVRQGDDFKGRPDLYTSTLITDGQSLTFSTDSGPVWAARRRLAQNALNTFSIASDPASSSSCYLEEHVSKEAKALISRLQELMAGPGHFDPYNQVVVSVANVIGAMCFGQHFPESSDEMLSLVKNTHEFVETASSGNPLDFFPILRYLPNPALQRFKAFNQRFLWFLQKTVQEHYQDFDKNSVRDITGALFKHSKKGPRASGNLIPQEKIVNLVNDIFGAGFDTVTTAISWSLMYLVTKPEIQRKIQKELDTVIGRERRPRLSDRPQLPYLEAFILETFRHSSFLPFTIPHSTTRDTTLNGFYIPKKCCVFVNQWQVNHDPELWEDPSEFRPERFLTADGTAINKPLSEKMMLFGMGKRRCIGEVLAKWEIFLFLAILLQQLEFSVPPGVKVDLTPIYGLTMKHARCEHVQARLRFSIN

The intrinsic clearance of `COc1cc2c(Oc3ccc4[nH]c(C)cc4c3F)ccnc2cc1OCC1(N)CC1` is reported as 0.23 µL/min/pmol (substrate; 1 µM, 60 min, pH 7.4, 37 °C).
For `C#Cc1ccc2c(C)cc(=O)oc2c1`, the kinact was 0.0065 s⁻¹ (enzyme activity, inhibitor; pH 7.6).
`COc1c2ccoc2c(OC)c2oc(=O)ccc12` gave an inhibition of roughly 60% (recombinant microsomes; 8 µM, after 20 h dialysis, added: methoxyresorufin).
`Nc1ncn([C@@H]2O[C@H](CO)[C@@H](O)[C@H]2O)c(=O)n1` has an inhibition of 19% (enzyme activity, inhibitor; human liver microsomes; 100 µM, added: ethoxyresorufin 0.4 µM).
`CC1=N[C@]2(C(=O)CO)[C@@H](C[C@H]3[C@@H]4C[C@@H](O)C5=CC(=O)C=C[C@]5(C)[C@H]4[C@@H](O)C[C@@]32C)O1` gave an IC50 of greater than 50 µM (enzyme activity, inhibitor; human, liver microsomes; with preincubation).
`COc1cc(Sc2c(-n3cncn3)[nH]c3ccccc23)cc(OC)c1OC` has an inhibition of less than 50% (enzyme activity, inhibitor, fluorescence; 1 µM, 15 min, pH 7.4).
`Cn1c(=O)c2c(ncn2C)n(C)c1=O` gave an AUC(0-inf) of 31700 ng·h/mL (human, plasma; oral, 200 mg, alone, geometric LS mean).
`COc1cc(OC)c(Cl)c(CCc2cnc3ccn(S(=O)(=O)c4c[nH]cn4)c3n2)c1Cl` gave an inhibition of 59% (enzyme activity, inhibitor; human, liver microsomes; 10 µM, 20 min, pH 7.4).
`C#Cc1ccc2ccc(=O)oc2c1` gave a kinact of 0.0015 s⁻¹ (enzyme activity, inhibitor; pH 7.6).
With `Cc1noc(C)c1Cn1cc(N2C(=O)CN(Cc3cccc(O)c3)C2=O)cn1` the inhibition was 3% (enzyme activity, inhibitor, fluorescence; Sf9; 10 µM).
The kinact of `C#Cc1cc2oc(=O)ccc2cc1OC` is reported as 0.00583 s⁻¹ (enzyme activity, inhibitor; pH 7.6).
With `COc1cc(Sc2c(-c3ccncc3)[nH]c3ccccc23)cc(OC)c1OC` the inhibition was less than 50% (enzyme activity, inhibitor, fluorescence; 1 µM, 15 min, pH 7.4).

A few entries again:
`Nc1ncn([C@@H]2O[C@H](CO)[C@@H](O)[C@H]2O)c(=O)n1` has an inhibition of 19% (enzyme activity, inhibitor; human liver microsomes; 100 µM, added: ethoxyresorufin 0.4 µM).
